Measurements from different studies.
A part holds a random share of what one study measured. Positions count from the first letter of the parent shown.

Block 1 — technique: DHFR PCA, deep sequencing; sample: yeast; added: (+)-ABA 1.4 µM; reference: wild-type fitted maximum; reading: higher = stronger binding
Target: ABI1, truncated, D143A, DHFR fusion (Arabidopsis thaliana)
Setting: methotrexate growth selection, single substitutions
Parent: PYL1, truncated, DHFR fusion (Arabidopsis thaliana); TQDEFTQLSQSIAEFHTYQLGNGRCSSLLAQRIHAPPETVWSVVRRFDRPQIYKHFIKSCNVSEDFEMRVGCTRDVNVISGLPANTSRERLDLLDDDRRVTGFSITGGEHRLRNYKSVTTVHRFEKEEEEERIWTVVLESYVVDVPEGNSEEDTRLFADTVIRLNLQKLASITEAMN
For `V78F`, “relative binding score” read 90.5%.
Under “relative binding score”, `Y53S` is recorded as -6.12%.
`L8Q`: “relative binding score” 24.5%.
Under “relative binding score”, `D65I` is recorded as -6.29%.
For `I133F`, “relative binding score” read 43.6%.
`C25A` — result for “relative binding score”: 51.9%.
For `T6F`, “relative binding score” read 32.5%.
`D96P`: “relative binding score” -7.69%.
`C25S` — result for “relative binding score”: 6.29%.
`N85C`: “relative binding score” 57.3%.
`V40T`: “relative binding score” 11.9%.
`F5I`: “relative binding score” 37.5%.

Block 2 — target: CCNE1, cyclin fold, Cln2 fusion (human); technique: yeast growth competition, sequencing; sample: yeast; setting: strong parent motif; reference: not given; reading: higher = stronger binding
Parent: SCAPER docking peptide (human); SNARRSLNFGGST
For `SNARRSLNFGVST [G11V]`, “normalised enrichment score” read 1.32.
`SNAPRSLNFGGST [R4P]`: “normalised enrichment score” -0.387.
`MNARRSLNFGGST [S1M]` — result for “normalised enrichment score”: 1.23.
`SQARRSLNFGGST [N2Q]` — result for “normalised enrichment score”: 0.642.
`HNARRSLNFGGST [S1H]` — result for “normalised enrichment score”: 0.625.
Under “normalised enrichment score”, `SNARRSLGFGGST [N8G]` is recorded as 0.45.
`WNARRSLNFGGST [S1W]`: “normalised enrichment score” 1.53.
For `SNARRSLNWGGST [F9W]`, “normalised enrichment score” read 1.19.
`SNARRILNFGGST [S6I]` — result for “normalised enrichment score”: 3.48.
`SNARRSLDFGGST [N8D]` — result for “normalised enrichment score”: 1.23.
Under “normalised enrichment score”, `SIARRSLNFGGST [N2I]` is recorded as 0.805.
For `SNARRSLNFEGST [G10E]`, “normalised enrichment score” read 1.28.
`SAARRSLNFGGST [N2A]` — result for “normalised enrichment score”: 0.984.
For `SVARRSLNFGGST [N2V]`, “normalised enrichment score” read 0.532.
`SNARRSLNFGGHT [S12H]` — result for “normalised enrichment score”: 1.07.
Under “normalised enrichment score”, `CNARRSLNFGGST [S1C]` is recorded as 1.14.
For `ENARRSLNFGGST [S1E]`, “normalised enrichment score” read -0.029.
Under “normalised enrichment score”, `SNARRSINFGGST [L7I]` is recorded as -0.00307.
`SNARRCLNFGGST [S6C]` — result for “normalised enrichment score”: 2.74.
For `SNARRKLNFGGST [S6K]`, “normalised enrichment score” read 4.66.
`SNIRRSLNFGGST [A3I]` — result for “normalised enrichment score”: 0.269.
`SFARRSLNFGGST [N2F]` — result for “normalised enrichment score”: 1.32.
For `SNARRWLNFGGST [S6W]`, “normalised enrichment score” read 2.24.
Under “normalised enrichment score”, `SNARRLLNFGGST [S6L]` is recorded as 1.07.
`SNARRVLNFGGST [S6V]` — result for “normalised enrichment score”: 5.18.

Block 3 — technique: RNA Bind-n-Seq; molecule type: RNA; sample: in vitro; tested at: not given; setting: RNA with constant flanks, ends assumed; reference: input RNA pool; reading: higher = stronger binding
Target: RING finger protein unkempt homolog, zinc fingers 1-6, GST-SBP tag (UNK, Homo sapiens, UniProt Q9C0B0, residues 30-357)
Target sequence (chain): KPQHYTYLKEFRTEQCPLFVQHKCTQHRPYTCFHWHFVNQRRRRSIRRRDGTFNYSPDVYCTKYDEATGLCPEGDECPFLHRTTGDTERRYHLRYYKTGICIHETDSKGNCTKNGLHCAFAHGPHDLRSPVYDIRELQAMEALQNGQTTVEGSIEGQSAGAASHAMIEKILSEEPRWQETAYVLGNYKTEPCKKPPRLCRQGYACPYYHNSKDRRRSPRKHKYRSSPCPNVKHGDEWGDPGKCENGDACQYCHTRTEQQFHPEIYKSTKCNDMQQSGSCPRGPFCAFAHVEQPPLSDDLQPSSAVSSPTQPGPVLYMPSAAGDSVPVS
With `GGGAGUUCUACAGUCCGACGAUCUGGUGGGGACUGAGUUCCCUGUUCAAACCGUUAUUGGGUACAGGAUUGAAUGUUUGAUUUCCGGUUUUAUUUUUCUUAUGAAUGUCCAGAUCUGUGUUUCCCUGCCCUCCCAGACUCUGGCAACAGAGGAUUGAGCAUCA` the bound/input enrichment was 0.318 ratio.
For `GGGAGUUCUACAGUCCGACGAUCUUGUAAUGUGGCCUGAAAACAAGCUAACUGUAUUAGAAACUAUUCAAAAACUAGGUAUUUUCCGUGACCUGUAGGCAGUGGCAAAUACAGACAUGUGAACCUUGAAUACAUUACAUUUCUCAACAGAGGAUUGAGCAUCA`, the bound/input enrichment was 0.735 ratio.
The bound/input enrichment of `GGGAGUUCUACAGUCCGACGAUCCAGUUUGACACUAAGAUAAUGAACUUCUGUGUGCAUUUUUCUAUGCUUUAUUUUUUAAUGCCGCUUACUUCCUGAGAUUUUGGCUUUGUUUAUACAAUCUGAGGGUGGUUAUAAAUACUGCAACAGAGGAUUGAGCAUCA` is reported as 0.162 ratio.
`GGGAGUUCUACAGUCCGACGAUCUGUAUCGCCUUUUUUAACAUCCUUAAUGAGUUAAACGACUAUGCAGGACAGCGAGAGGCCGCCGCAGAAGAAAUGGCGCACAGAGUAUAUGGUGAAUUAAUGAGAUAUGCCCAUGAUCUGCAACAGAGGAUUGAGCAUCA` has a bound/input enrichment of 0.238 ratio.
The bound/input enrichment of `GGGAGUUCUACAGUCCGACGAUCCCUCCUUCCCCCCACCCAAUCCUUUUUUUUUUCUUUUUUGCUUUUCUUUUCUUUUUUUUCCGUUUUUAUUUACUUUACCUAGUAUGCCUUUUUUUAGUUGCUUCUCAAGUCAGAAAACUUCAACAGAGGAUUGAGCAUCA` is reported as 41.2 ratio.
`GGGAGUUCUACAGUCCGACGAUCGCUAUGCAGGCUUUGACUCUUCUAGGAGCAUGUGUAUCAAACUGUGGCAAAAUUUUUCAUUCCGAAGUAUGUUCAAGAGAUUUUGCUAGUGAAGUAAGCAACGUAUUAAAUAAGGGUCAUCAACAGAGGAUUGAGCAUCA` has a bound/input enrichment of 0.56 ratio.
`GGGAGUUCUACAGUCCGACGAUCGAGACUAAUGUUUAACUUUGAGAUACGUUUUCUGAGAGUUGCUAACCGGUUGGAGAUGAACUCCGAGAAUAGGGUUCACCUUUUUCGUCUGUCAGCGGGUUAUCGAGUGCCCAGUGGUGUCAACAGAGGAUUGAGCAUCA` gave a bound/input enrichment of 0.176 ratio.
With `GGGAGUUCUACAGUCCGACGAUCAGGCGUCACCUUGAUGGCCUGCAACCCCUCCCUGCCUCAUUCUUAGUUCAAGAUCGUCUUCCGUCUCGCUGCGUCCCUUUCCCUUGCACCUGUUAACAUCUUUAAGGCAGGAGCUGAUGACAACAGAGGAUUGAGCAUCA` the bound/input enrichment was 0.577 ratio.
With `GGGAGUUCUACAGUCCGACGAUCAGGAAUCAAGUGCUACCACUUUCUGAUGUGGAUACAACUUCUGCUACAGAUAUUCAAAGAGCCGCUGUGCUAUGUGUUUCCAGAUCUGCUUAUUGUUUGGGUUCAAGCCACCCCAGAGGACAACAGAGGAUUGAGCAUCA` the bound/input enrichment was 0.144 ratio.
With `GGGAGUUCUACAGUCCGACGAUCGGGCCCUGGAAGCUGACGGCGUCCAAGACCCACAUCAUGAAGUCGGCGGAUGUGGAGAAAUCCGCCGAUGAAUUACAUAUGCCAUCUCUCCCUGAAAUGAUGUUUGGAGACAACGUUUUACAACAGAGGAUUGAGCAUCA` the bound/input enrichment was 0.133 ratio.
The bound/input enrichment of `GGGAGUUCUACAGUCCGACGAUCAUGCUGACUGGUAAAACCCUUUUUGCAGGUGCACAUGAACUUGAACAGAUGCAGCUGAUUUCCGAAUCUAUUCCUGUUGUACAUGAGGAAGAUCGUCAGGAGCUUCUCAGCGUAAUUCCACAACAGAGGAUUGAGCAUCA` is reported as 0.063 ratio.

Block 4 — technique: universal PBM; molecule type: double-stranded DNA, one strand shown; sample: in vitro; tested at: 600 nM; reading: higher = stronger binding
Target: Sal-like protein 4, full length isoform A (SALL4, Homo sapiens, UniProt Q9UJQ4, residues 1-1053)
Sequence of UniProt Q9UJQ4 (whole entry, looked up): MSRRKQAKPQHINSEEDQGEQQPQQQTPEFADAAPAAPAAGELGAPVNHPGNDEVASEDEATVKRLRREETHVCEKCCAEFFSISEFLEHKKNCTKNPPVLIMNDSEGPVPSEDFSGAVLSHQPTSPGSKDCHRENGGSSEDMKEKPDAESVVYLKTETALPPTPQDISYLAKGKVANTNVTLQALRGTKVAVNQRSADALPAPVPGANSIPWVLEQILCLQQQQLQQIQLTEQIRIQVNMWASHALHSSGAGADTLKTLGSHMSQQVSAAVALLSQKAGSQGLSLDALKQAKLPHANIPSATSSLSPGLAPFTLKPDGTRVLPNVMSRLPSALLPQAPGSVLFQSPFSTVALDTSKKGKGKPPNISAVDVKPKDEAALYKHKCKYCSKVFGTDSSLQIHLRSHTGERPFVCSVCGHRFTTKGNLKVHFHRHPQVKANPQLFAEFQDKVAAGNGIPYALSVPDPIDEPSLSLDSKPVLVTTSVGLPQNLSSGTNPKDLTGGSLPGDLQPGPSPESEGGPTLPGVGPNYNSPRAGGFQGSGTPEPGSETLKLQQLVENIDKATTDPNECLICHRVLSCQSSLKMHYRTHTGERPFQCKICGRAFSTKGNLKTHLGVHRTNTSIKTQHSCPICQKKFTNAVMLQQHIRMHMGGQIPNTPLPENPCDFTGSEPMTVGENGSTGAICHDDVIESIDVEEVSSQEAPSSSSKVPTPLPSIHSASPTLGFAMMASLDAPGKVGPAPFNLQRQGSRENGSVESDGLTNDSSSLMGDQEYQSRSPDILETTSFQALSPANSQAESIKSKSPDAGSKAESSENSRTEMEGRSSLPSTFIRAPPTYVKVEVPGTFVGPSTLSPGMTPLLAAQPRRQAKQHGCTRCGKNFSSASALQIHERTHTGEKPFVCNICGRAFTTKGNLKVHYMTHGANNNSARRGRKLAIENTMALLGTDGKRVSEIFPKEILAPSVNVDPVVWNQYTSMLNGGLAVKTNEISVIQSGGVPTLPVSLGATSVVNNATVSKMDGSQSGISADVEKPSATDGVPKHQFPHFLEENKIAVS
Setting: 8-mer, flanks averaged, mean of replicates
`TTAGAGAA` has an E-score of 0.0937.
`CCAGAATC` has an E-score of -0.141.
`CTTCTACC` gave an E-score of -0.172.
The E-score of `GGTAGCAA` is reported as -0.0101.
`CCAGCTAC` gave an E-score of -0.158.
For `CAGAATTC`, the E-score was 0.186.
The E-score of `CCTTAATC` is reported as 0.0628.
`AACCTATG` gave an E-score of 0.173.
`ATAGCCCG` gave an E-score of -0.147.
With `AGATGAAT` the E-score was 0.211.
`AACCAATA` gave an E-score of 0.25.
`CTCTTACA` gave an E-score of 0.156.
`GTGAGGCA` gave an E-score of -0.152.
The E-score of `AGACAGCA` is reported as -0.00449.
`AGAACAGA` has an E-score of 0.0722.
`CATTATCA` gave an E-score of 0.294.
`CTCCTAGA` gave an E-score of -0.0167.
For `TGAGAAAA`, the E-score was 0.19.
`AAGGCGTG` has an E-score of -0.244.
The E-score of `CAGCATAG` is reported as 0.0833.
`AGACGTAC` gave an E-score of 0.00375.
`ACACTCAT` has an E-score of 0.262.
`AAAACTTG` gave an E-score of 0.257.
`AGGCCCAT` gave an E-score of -0.275.
For `ACAAACTG`, the E-score was -0.101.

A few entries again (block 2):
`SAARRSLNFGGST [N2A]` — result for “normalised enrichment score”: 0.984.
`MNARRSLNFGGST [S1M]` — result for “normalised enrichment score”: 1.23.
For `SNARRSLNWGGST [F9W]`, “normalised enrichment score” read 1.19.
Under “normalised enrichment score”, `SNARRLLNFGGST [S6L]` is recorded as 1.07.
For `SNARRKLNFGGST [S6K]`, “normalised enrichment score” read 4.66.
`SFARRSLNFGGST [N2F]` — result for “normalised enrichment score”: 1.32.
For `SVARRSLNFGGST [N2V]`, “normalised enrichment score” read 0.532.
`SNARRSLNFGGHT [S12H]` — result for “normalised enrichment score”: 1.07.
For `SNARRSLNFGVST [G11V]`, “normalised enrichment score” read 1.32.
Under “normalised enrichment score”, `SIARRSLNFGGST [N2I]` is recorded as 0.805.
